Experimental data pooled from the literature.
Lines come from different studies, so protocols differ. Several values in a cell are separate wells, animals, samples, runs or records. Numbers after ± are the reported error.
Organism: SARS-CoV-2

CN(C)c1ccc(N(Cc2cc(Cl)cs2)C(=O)Cc2cncc3ccccc23)cc1
EC50 (dsRNA staining; Caco-2, Omicron BA.5): 700 nM

Cc1ccc(CNC(=O)c2cccc(Cl)c2)cc1C(=O)N[C@H](C)c1cccc2ccccc12
EC50 (viral replication; Vero C1008, WK-521 ancestral Wuhan): > 100000 nM

CN(C)CCCCNC(=O)C[C@H](Cc1ccc(F)cc1)NC(=O)[C@@H](Cc1ccc(Cl)cc1Cl)NC(=O)C(N)Cc1ccccc1C(N)=O (stereo partly shown)
EC50 (viral replication; USA-WA1/2020; 24 h): > 10000 nM

O=C(CN1CCCC2=CC3CC(CN4CCCCC34)C21)Nc1ccc(Br)c(C(F)(F)F)c1 (stereo not shown)
EC50 (pseudovirus entry; pseudovirus): 4000 nM

CO/C1=C\C(C)=C\[C@@H](C)[C@@H](O)[C@@H](C)C/C(C)=C/C=C/[C@H](OC)[C@@H]([C@@H](C)[C@@H](O)[C@H](C)C(=O)/C=C/[C@H](C)[C@H](O)C(C)C)OC1=O
EC50 (viral replication, measured: nucleocapsid protein; Calu-3, Omicron BA.5): 43.9 nM

COc1cccc2[nH]c(C(=O)N[C@@H](CC(C)C)C(=O)N[C@@H](C[C@@H]3CCNC3=O)C(=O)c3nc4ccccc4s3)cc12
EC50 (viral replication, RT-qPCR; VeroE6, WK-521): 2200 ± 530 nM

Cc1cc(C(=O)COn2nnc3ccc(S(C)(=O)=O)cc32)c(C)n1C
EC50 (viral replication): > 100000 nM

Cc1ccc(NCC(=O)N2CCCC3=CC4CC(CN5CCCCC45)C32)cc1 (stereo not shown)
EC50 (pseudovirus entry; pseudovirus): > 267000 nM

CN(C)c1ccc(N(Cc2cc(Cl)cs2)C(=O)Cc2cncc3cccc(O)c23)cc1
EC50 (viral replication, nucleocapsid staining; Calu-3, Omicron BA.5): 69 nM

O=C(CN1CCCC2=CC3CC(CN4CCCCC34)C21)Nc1cc(Br)ccc1Br (stereo not shown)
EC50 (pseudovirus entry; pseudovirus): 55300 nM

C[C@H](c1cccc2ccccc12)N(C)Cc1ccc(O)cc1Cl
EC50 (viral replication; Vero E6, USA-WA1/2020; 24 h): 22300 nM

C[C@](C(=O)NC1CCOCC1)(c1cncnc1)N(C(=O)[C@H](F)Cl)c1ccc(OC(F)(F)Cl)cc1
EC50 (Vero C1008, XBB.1): 50 nM and 30 nM

Cc1ccc(OCCN(C)C)cc1C(=O)N[C@H](C)c1cc(-c2cnn(CCN3CCOCC3)c2)cc(-c2ccn(C)n2)c1
EC50 (viral replication; Caco-2, icSARS-CoV-2-nLuc reporter): 800 nM

C#CCCC1(CCCNC(=O)CCOCCOc2ccc(-c3cnc4c(C#Cc5cccnc5)snc4c3)cc2)N=N1
EC50 (viral replication; Calu-3, USA-WA1/2020): 230 nM

CC(C)CC(C(=O)N1CC2(CC1C#N)C(=O)Nc1ccccc12)N(C)C(=O)c1cc2c(F)cc(F)c(F)c2[nH]1 (stereo not shown)
EC50 (viral replication; Vero E6): 15 nM

CCOC(=O)[C@H](C(C)C)n1[se]c2ccccc2c1=O
EC50 (viral replication, RT-qPCR; Vero; 48 h): 24000 nM

CC(C)C[C@H](NC(=O)c1cc2c(F)ccc(F)c2[nH]1)C(=S)N[C@@H](C[C@@H]1CCNC1=O)C(=O)c1nc2cc(F)ccc2s1
EC50 (viral replication, RT-qPCR; VeroE6, WK-521): 490 ± 60 nM

Cc1ccc(N2CC(N3CCC(C)(O)CC3)C2)cc1C(=O)NC1(c2ccc3c4c(cccc24)C(=O)N3C)CC1
EC50 (viral replication; Vero C1008, Omicron BA.5): 174 nM

N#Cc1ccccc1C[C@@H](N)C(=O)N[C@H](Cc1ccc(Cl)cc1Cl)C(=O)NCCc1ccc(F)cc1
EC50 (viral replication; USA-WA1/2020; 24 h): 2900 nM

O=C1C(O)=C(Nc2ccccc2Cl)C(=O)c2ccccc21
EC50 (viral replication; Calu-3; 48 h): 2300 ± 300 nM

Cc1cc(C(=O)NCc2ccc(C)c(C(=O)N[C@H](C)c3cccc4ccccc34)c2)ccc1Br
EC50 (viral replication; Vero C1008, WK-521 ancestral Wuhan): 57100 ± 6700 nM

Cc1cncc(C(=O)N2CCN(C(c3ccccc3)c3ccccc3)CC2)c1
EC50 (viral replication; USA-WA1/2020): 410 nM

CC(=O)OC1(C)CC(C=C(C)CCC=C(C)C)OC2(C=C(CO)C3CC(=O)C(C)=CC3O2)C1 (stereo not shown)
EC50 (viral replication, measured: nucleocapsid protein; Calu-3, Omicron BA.2): 700 nM

COc1cccc(CN2CCCC3=CC4CC(CN5CCCCC45)C32)c1 (stereo not shown)
EC50 (pseudovirus entry; pseudovirus): 152000 nM

CC[C@H](C)[C@H](NC(=O)[C@H](CCCCN)NC(=O)[C@@H](NC(=O)[C@H](CCC(N)=O)NC(=O)[C@H](CCCNC(=N)N)NC(=O)COCCOCCNC(C)=O)[C@@H](C)CC)C(=O)N[C@@H](Cc1c[nH]c2ccccc12)C(=O)N[C@@H](Cc1ccccc1)C(=O)N[C@@H](CCC(N)=O)C(=O)N[C@@H](CC(N)=O)C(=O)N[C@@H](CCCNC(=N)N)C(=O)N[C@@H](CCCNC(=N)N)C(=O)N[C@@H](CCSC)C(=O)N[C@@H](CCCCN)C(=O)N[C@@H](Cc1c[nH]c2ccccc12)C(=O)N[C@@H](CCCCN)C(=O)N[C@@H](CCCCN)C(N)=O
EC50 (viral replication): > 50000 nM

N#Cc1ccccc1C[C@@H](N)C(=O)N[C@H](Cc1ccc(Cl)cc1Cl)C(=O)N[C@H](CC(=O)NCCNc1nnc(N)[nH]1)Cc1ccc(F)cc1
EC50 (viral replication; USA-WA1/2020; 24 h): > 10000 nM

Cc1ccc(OCCN(C)C)cc1C(=O)N[C@H](C)c1cc(-c2cnn(C)c2)cc(-c2cnn(CCN3CCOCC3)c2)c1
EC50 (viral replication; Caco-2, icSARS-CoV-2-nLuc reporter): 590 nM

O=CN(CCCc1cn(-c2ccc(CN3CCOCC3)cc2)nn1)CCNc1ccnc2cc(Cl)ccc12
EC50 (viral replication; Vero 76, MUC-IMB-1/2020; 30 h): 1800 ± 2400 nM

CC(C)C(=O)OC[C@H]1O[C@@](C#N)(n2ccc(N)nc2=O)[C@H](O)[C@@H]1O
EC50 (viral replication, qRT-PCR of viral RNA; Vero, Washington): 3600 ± 300 nM

Cc1ccc(N2CCN(C)CC2)cc1C(=O)NC1(c2ccc3c4c(cccc24)CC3)CC1
EC50 (viral replication; Vero C1008, XBB.1): 450 nM

C=CCn1c(C)cc(C(=O)COn2nnc3ccc(S(=O)(=O)N(C)C)cc32)c1C
EC50 (viral replication, cell-based): inactive

Cc1ccc(CNC(=O)c2ccc(Br)cc2F)cc1C(=O)N[C@H](C)c1cccc2ccccc12
EC50 (viral replication; Vero C1008, WK-521 ancestral Wuhan): 23900 ± 5800 nM

Cc1ccc(OCCN(C)C)cc1C(=O)N[C@H](C)c1cc(-c2cnn(C)c2)cc(-c2cnn(C3CC3)c2)c1
EC50 (viral replication; Caco-2, icSARS-CoV-2-nLuc reporter): 350 nM

C[C@@H](NCCCc1cccc(C(F)(F)F)c1)c1cccc2ccccc12
EC50 (viral replication, plaque; Vero C1008; 16 h): 2930 ± 380 nM

O=C(CNc1ccc(I)cc1)N1CCCC2=CC3CC(CN4CCCCC34)C21 (stereo not shown)
EC50 (pseudovirus entry; pseudovirus): 9400 nM

CC(C)(C)[C@H](NC(=O)C(F)(F)F)C(=O)N1C[C@H]2[C@@H]([C@H]1C(=O)N[C@H](C#N)C[C@@H]1CCNC1=O)C2(C)C
EC50 (viral replication, nucleocapsid staining; Caco-2, Omicron BA.5): 400 nM

O=C(CCCCCCc1ccc(O)c(O)c1)c1c(O)cccc1O
EC50 (MTT; Vero E6/TMPRSS2, WK-521 ancestral): 2900 nM

CNC(=O)C[C@H](Cc1ccncc1)NC(=O)[C@@H](Cc1cccc(Br)c1)NC(=O)[C@@H](N)Cc1cccc(F)c1
EC50 (viral replication; USA-WA1/2020; 24 h): > 10000 nM

Cc1ccc(N)cc1C(=O)N[C@H](C)c1cccc2ccccc12
EC50 (viral replication; USA-WA1/2020; 24 h): 20000 nM

CC(=O)N(CCCc1cn(-c2ccc(CN3CCOCC3)cc2)nn1)CCNc1ccnc2cc(Cl)ccc12
EC50 (viral replication; Vero 76, MUC-IMB-1/2020; 30 h): 2400 ± 3700 nM

COc1ccccc1-c1nc2sc3c(c2c(=O)o1)CCC3
EC50 (viral replication): > 100000 nM

NS(=O)(=O)c1cccc2c1C(=O)c1cccc(O)c1C2=O
EC50 (virus-induced cytopathic effect; Vero E6, USA-WA1/2020; 72 h): > 20000 nM

CN(C)CCCCNC(=O)C[C@H](Cc1ccccc1)NC(=O)[C@@H](Cc1ccc(Cl)cc1Cl)NC(=O)[C@H](N)Cc1ccccc1C#N
EC50 (viral replication; USA-WA1/2020; 24 h): 3100 nM

Cc1ccc(CNC(=O)c2cccc(Br)c2F)cc1C(=O)N[C@H](C)c1cccc2ccccc12
EC50 (viral replication; Vero C1008, WK-521 ancestral Wuhan): 70700 ± 8000 nM

CN(CC(=O)N1CCCC2=CC3CC(CN4CCCCC34)C21)c1ccc(Cl)cc1 (stereo not shown)
EC50 (pseudovirus entry; pseudovirus): 21100 nM

CN(C)S(=O)(=O)c1ccc2c(c1)N(CCCN1CCC(CCO)CC1)c1ccccc1S2
EC50 (viral replication, high-content imaging screen; cell-based): > 100000 nM

[2H]C1([2H])CC[C@@H](C[C@@H](C#N)NC(=O)[C@@H]2[C@@H]3[C@H](CN2C(=O)[C@@H](NC(=O)C(F)(F)F)C(C)(C)C)C3(C)C)C(=O)N1
EC50 (viral replication; Canada/VIDO 01/2020; added: efflux inhibitor CP-100356): 70 nM

C[C@@H]1O[C@@H](n2c3ccccc3c3c4c(c5c6ccccc6[nH]c5c32)CNC4=O)C[C@@H](N)[C@H]1O
EC50 (viral replication, measured: nucleocapsid protein; Calu-3, Omicron BA.5): 80 nM

CNC(=O)C[C@H](Cc1ccccc1)NC(=O)[C@@H](Cc1ccc(Cl)cc1Cl)NC(=O)[C@H](N)Cc1ccccc1C#N
EC50 (viral replication; USA-WA1/2020; 24 h): 2000 nM

Cc1ccc(CNC(=O)c2ccccc2Cl)cc1C(=O)N[C@H](C)c1cccc2ccccc12
EC50 (viral replication; Vero C1008, WK-521 ancestral Wuhan): 35600 ± 1700 nM

CNC(=O)C[C@H](Cc1ccc(F)cc1)NC(=O)[C@@H](Cc1ccc(Cl)cc1Cl)NC(=O)[C@@H](N)C[C@H]1CCNC1=O
EC50 (viral replication; USA-WA1/2020; 24 h): > 10000 nM

Oc1c(Br)cc(Br)c2cccnc12
EC50 (viral replication, immunofluorescence; Vero E6, delta B.1.617.2; 24 h): 2700 nM

Some of these lines once more:
CC[C@H](C)[C@H](NC(=O)[C@H](CCCCN)NC(=O)[C@@H](NC(=O)[C@H](CCC(N)=O)NC(=O)[C@H](CCCNC(=N)N)NC(=O)COCCOCCNC(C)=O)[C@@H](C)CC)C(=O)N[C@@H](Cc1c[nH]c2ccccc12)C(=O)N[C@@H](Cc1ccccc1)C(=O)N[C@@H](CCC(N)=O)C(=O)N[C@@H](CC(N)=O)C(=O)N[C@@H](CCCNC(=N)N)C(=O)N[C@@H](CCCNC(=N)N)C(=O)N[C@@H](CCSC)C(=O)N[C@@H](CCCCN)C(=O)N[C@@H](Cc1c[nH]c2ccccc12)C(=O)N[C@@H](CCCCN)C(=O)N[C@@H](CCCCN)C(N)=O
EC50 (viral replication): > 50000 nM

Cc1ccc(CNC(=O)c2cccc(Br)c2F)cc1C(=O)N[C@H](C)c1cccc2ccccc12
EC50 (viral replication; Vero C1008, WK-521 ancestral Wuhan): 70700 ± 8000 nM

Oc1c(Br)cc(Br)c2cccnc12
EC50 (viral replication, immunofluorescence; Vero E6, delta B.1.617.2; 24 h): 2700 nM

Cc1cc(C(=O)COn2nnc3ccc(S(C)(=O)=O)cc32)c(C)n1C
EC50 (viral replication): > 100000 nM

CN(C)c1ccc(N(Cc2cc(Cl)cs2)C(=O)Cc2cncc3cccc(O)c23)cc1
EC50 (viral replication, nucleocapsid staining; Calu-3, Omicron BA.5): 69 nM

Cc1ccc(CNC(=O)c2ccccc2Cl)cc1C(=O)N[C@H](C)c1cccc2ccccc12
EC50 (viral replication; Vero C1008, WK-521 ancestral Wuhan): 35600 ± 1700 nM

N#Cc1ccccc1C[C@@H](N)C(=O)N[C@H](Cc1ccc(Cl)cc1Cl)C(=O)NCCc1ccc(F)cc1
EC50 (viral replication; USA-WA1/2020; 24 h): 2900 nM
